Assay results pooled from the literature.
Each line is one published result; not all experiments were run side by side. Several values in a cell are separate wells, animals, samples, runs or records. Numbers after ± are the reported error. In brackets after ≈: the same amount, converted by molar mass.
IDE: Insulin-degrading enzyme (IDE, Homo sapiens, UniProt P14735)

SMILES = N=C(N)c1ccc(OCc2ccc(Br)cc2COc2ccc(C(=N)N)cc2)cc1; tested on = Escherichia coli; assay = checkerboard; test system = mcr-2 polymyxin-resistant; setting = unit not given, added: rifampicin; scale = lower = stronger synergy; endpoint = FICI; value = 0.063
SMILES = COC(=O)Nc1nc2cc(C(=O)c3ccc(F)cc3)ccc2[nH]1; tested on = Trichomonas gallinae; assay = CCK-8; test system = trophozoites; setting = 24 h; endpoint = IC50; value = 7180 nM
SMILES = Cc1ccc(S(=O)(=O)Nn2c(N)c(C#N)cc(-c3nc4ccccc4s3)c2=O)cc1; tested on = coxsackievirus B4; assay = viral replication, plaque; test system = BGM; setting = non-toxic dose, mean of three titres; endpoint = plaque reduction; value = 10%
SMILES = CCc1nn(C)c2nc(-c3ccc(C(=O)O)cc3)nc(NCc3ccc(F)cc3)c12; tested on = Cryptosporidium parvum; test system = HCT-8; setting = EC90, 24 h; scale = reference: DMSO control; endpoint = parasite number; value = 47.9% and 47.2% and 41.9% and 44%
SMILES = CCCCCCCc1[nH]c2ccccc2c(=O)c1C; tested on = Plasmodium yoelii; test system = 17XL; setting = 384-well; endpoint = IC50; value = 159 ± 11 nM
SMILES = CCOc1ccc2cc(-c3nn(CC4CCN(C)CC4)c4ncnc(N)c34)ccc2c1; tested on = Theileria equi; assay = hydroethidine flow cytometry; test system = USDA Florida; setting = 0.3 µM, 72 h; endpoint = % of maximum PPE; value = 93.9%
SMILES = c1ccc(OCCn2c(CNCC34CC5CC(CC(C5)C3)C4)nc3ccccc32)cc1; tested on = Streptococcus pneumoniae; test system = clinical isolates; endpoint = MIC50; value = ≤ 4 µg/mL
SMILES = CC(C)C[C@H](NC(=O)C[C@H](O)[C@H](CC(C)C)NC(=O)[C@H](Cc1c[nH]cn1)NC(=O)CNC(=O)[C@@H](NC(=O)[C@H](C)NC(=O)[C@H](Cc1c[nH]c2ccccc12)NC(=O)[C@H](CCC(N)=O)NC(=O)[C@@H](Cc1ccccc1)NC(=O)COCCOCCNC(=O)CCC(C(=O)O)N1CCN(CC(=O)O)CCN(CC(=O)O)CCN(CC(=O)O)CC1)C(C)C)C(N)=O (stereo partly shown) [lutetium-177 labelled]; test system = BALB/c nu/nu mice, PC-3 xenograft tumour; setting = 250 pmol, 1 h, added: PA 300 µg; endpoint = tissue uptake; value = 13 ± 1.3 %ID/g
SMILES = Nc1ccccc1C(=O)NCCCCNc1ccnc2ccccc12; tested on = Chromobacterium violaceum; assay = bacterial viability, resazurin; test system = ATCC 31532; setting = 40 µM; endpoint = inhibition; value = 0.8%
SMILES = Cc1[nH]c(/C=C2\N=C(c3ccc[nH]3)C=C2OC(C)C)cc1Cc1ccc(Cl)cc1.Cl; tested on = Plasmodium yoelii; test system = CF1 mice; setting = oral, 25 mg/kg daily for 4 days, day 5; scale = reference: vehicle; endpoint = parasitaemia reduction; value = 100%
SMILES = O=C(Nc1cccc(C2=NCCN2)c1)Nc1cccc(C2=NCCN2)c1; tested on = Theileria equi; assay = parasite growth, flow cytometry; test system = horse erythrocytes, USDA Florida strain; setting = 0.002688 µM, 72 h; endpoint = inhibition; value = 96.2%
SMILES = COC(=O)[C@@H](NCc1cc2ccccc2nc1OCc1ccccc1)C(C)C; tested on = Pseudomonas aeruginosa; setting = 128 µg/mL, added: pentamidine 100 µM; scale = reference: control; endpoint = growth; value = 90.9%
SMILES = Oc1c(Br)cc(Br)c2cccnc12; tested on = Trichomonas gallinae; assay = CCK-8; test system = trophozoites; setting = 24 h; endpoint = IC50; value = 10200 nM
SMILES = CCCCCCCCc1c(C)[nH]c(C)c(C#N)c1=O; tested on = Plasmodium yoelii; test system = 17XL; setting = 384-well; endpoint = IC50; value = 99 ± 25 nM
SMILES = O=c1cccc(O)c(O)c1O; tested on = herpes simplex virus 1; assay = viral replication; setting = 1 µM; endpoint = reduction in viral titre; value = -0.14 log10
SMILES = Cc1[nH]c(/C=C2\N=C(c3ccc[nH]3)C=C2OCc2ccccc2)cc1Cc1ccc(OC(F)(F)F)cc1; tested on = Plasmodium yoelii; assay = parasitaemia; test system = mouse; setting = 4-day treatment, parasitaemia day 5; endpoint = ED90; value = 8.51 mg/kg/day
SMILES = COc1ccc(-c2nc(N3CCOCC3)c3sc(CN(C)c4ncc(C(=O)NO)cn4)cc3n2)cn1; tested on = herpes simplex virus 1; assay = viral replication; test system = fibroblasts, K26, GFP-expressing; endpoint = IC50; value = > 10000 nM
SMILES = CCOC(=O)c1cn(CC)c2cc(OCc3ccccc3)ccc2c1=O; tested on = Plasmodium yoelii; test system = 17XL; setting = 384-well; endpoint = IC50; value = 1590 ± 912 nM
SMILES = CCOc1ccc2cc(-c3nn(CC4CCN(C)CC4)c4ncnc(N)c34)ccc2n1; tested on = Theileria equi; assay = hydroethidine flow cytometry; test system = USDA Florida; setting = 30 µM, 72 h; endpoint = % of maximum PPE; value = 10.2%
SMILES = Cc1cc(Nc2ccc(S(F)(F)(F)(F)F)cc2)n2nc(C(C)(F)F)nc2n1; tested on = Plasmodium vivax; test system = infected patients; setting = dose not given; endpoint = time to clear 99% of initial parasitaemia; value = ~4 days
SMILES = CC[C@H](CO)N(CCN(N=O)[C@H](CC)CO)N=O; tested on = Salmonella typhimurium; assay = mutagenicity, Ames plate incorporation; test system = TA100; setting = 5000 µg/plate, without S9, methanol; endpoint = revertant colonies per plate; value = 198 ± 22
SMILES = CCOC1=CC(c2ccc[nH]2)=N/C1=C\c1cc(Cc2ccc(Cl)cc2)c(C)[nH]1.Cl; tested on = Plasmodium yoelii; assay = parasitaemia; test system = mouse; setting = 4-day treatment, parasitaemia day 5; endpoint = ED90; value = 3.07 mg/kg/day
SMILES = CCCCN(C)CC#Cc1ccc2[nH]c(C)c(Cl)c(=O)c2c1; tested on = Plasmodium yoelii; test system = 17XL; setting = 384-well; endpoint = IC50; value = 770 ± 589 nM
SMILES = Oc1ccccc1-c1n[nH]cc1-c1ccnc2ccccc12; tested on = BCK1 (Candida albicans); assay = kinase binding, MIB/MS competition; test system = Candida albicans lysate; setting = 1 µM; scale = reference: DMSO; endpoint = log2 fold change; value = 0.05
SMILES = Cc1cc(OC(C)C)ccc1C(=O)C(C)(C)NC(=O)c1sccc1C; tested on = Trichoderma sp.; assay = mycelial growth; test system = PSA medium; setting = 20 °C, suspension concentrate 400 g/L; endpoint = EC50; value = 0.41 µg/mL
SMILES = COCC(=O)N1CCCC(C(=O)NCc2nc(-c3ccccc3)cs2)C1 (racemic); tested on = Plasmodium falciparum; test system = 3D7; setting = 72 h; endpoint = EC50; value = 140 to 190 nM
SMILES = C/C=C/COc1ccc(-c2c(C)[nH]c(C)c(Cl)c2=O)cc1; tested on = Plasmodium yoelii; test system = 17XL; setting = 384-well; endpoint = IC50; value = 333 ± 187 nM
SMILES = CCOC1=CC(c2ccc[nH]2)=N/C1=C\c1cc(Cc2ccc(OC(F)(F)F)cc2)c(C)[nH]1.Cl; tested on = Plasmodium yoelii; test system = CF1 mice; setting = oral, 25 mg/kg daily for 4 days, day 5; scale = reference: vehicle; endpoint = parasitaemia reduction; value = 100%
SMILES = Cc1ccccc1-c1ccc([C@H]2[C@@H](CO)N3C(=O)CN(C(=O)Cc4ccccn4)C[C@@H]23)cc1; tested on = IDE; assay = enzyme activity, inhibitor, fluorogenic kinetic; setting = added: Mca-RPPGFSAFK(Dnp)-OH substrate; endpoint = EC50; value = 3200 nM
SMILES = C=C[C@]1(C)C[C@@H](OC(=O)CS[C@@H]2C[C@H]3CC[C@@H](C2)N3C)[C@]2(C)[C@H](C)CC[C@]3(CCC(=O)[C@H]32)[C@@H](C)[C@@H]1O; tested on = Streptococcus pneumoniae; endpoint = MIC50; value = 0.0312 µg/mL (≈ 0.0604 µM)
SMILES = Cc1cc(N)c2c(OCC(C)(C)C(=O)NC(C)C)cccc2n1; tested on = Salmonella typhimurium; assay = reverse mutation, plate incorporation; test system = TA98; setting = 5000 µg/plate, with rat liver S9; endpoint = mean revertant colonies; value = 13 colonies/plate
SMILES = C=CC[C@@H]1c2ccc(OC)c(OC)c2CN2CCc3cc4c(cc3[C@H]12)OCO4; tested on = Staphylococcus aureus; test system = P2rx7+/+ mice, skin wound infection; setting = dose not given, day 6; scale = reference: day 0; endpoint = relative wound size; value = 0.18 and 0.35 and 0.2 and 0.24 and 0.16 and 0.53
SMILES = N=C(N)c1ccc(OCc2cc(COc3ccc(C(=N)N)cc3)cc(-c3ccccc3)c2)cc1; tested on = Escherichia coli; assay = checkerboard; test system = BW25113; setting = concentration not given, lowest-FICI combination, added: rifampicin; endpoint = MIC of compound in combination; value = 3.13 µg/mL
SMILES = COC1=C(OC)/C(=C/c2[nH]c(Cc3ccc(OC(F)(F)F)cc3)cc2Cc2ccc(OC(F)(F)F)cc2)N=C1c1ccc[nH]1.Cl; tested on = Plasmodium yoelii; test system = CF1 mice; setting = oral, 25 mg/kg daily for 4 days, day 5; scale = reference: vehicle; endpoint = parasitaemia reduction; value = 100%
SMILES = CN[C@H](CC(C)C)C(=O)N[C@H]1C(=O)N[C@@H](CC(N)=O)C(=O)N[C@H]2C(=O)N[C@H]3C(=O)N[C@H](C(=O)N[C@H](C(=O)O)c4cc(O)cc(O)c4-c4cc3ccc4O)[C@H](O)c3ccc(c(Cl)c3)Oc3cc2cc(c3O[C@@H]2O[C@H](CO)[C@@H](O)[C@H](O)[C@H]2O[C@H]2C[C@](C)(N)[C@H](O)[C@H](C)O2)Oc2ccc(cc2Cl)[C@H]1O; tested on = Staphylococcus aureus; assay = broth microdilution; test system = methicillin-susceptible isolates; endpoint = MBC; value = 2 µg/mL (≈ 1.38 µM)
SMILES = Cc1[nH]c(/C=C2\N=C(c3ccc[nH]3)C=C2OCc2ccccc2)cc1Cc1ccc(Cl)cc1.Cl; tested on = Plasmodium yoelii; test system = CF1 mice; setting = oral, 10 mg/kg daily for 4 days, day 5; scale = reference: vehicle; endpoint = parasitaemia reduction; value = 39.7%
SMILES = Nc1nc(-c2ccccc2)nc2[nH]nc(Nc3ccc(C(F)(F)F)cc3)c12; tested on = coxsackievirus B3; test system = 31-1-93, NMRI mice, CVB3 chronic myocarditis; setting = oral, 100 mg/kg twice daily, day 14, dosed days 3 to 10, score scale 0 to 7; scale = direction not given; endpoint = clinical score; value = 0.8
SMILES = COc1ccnc(C(=O)NC(CO)C(=O)O)c1O (racemic); tested on = Pseudokirchneriella subcapitata; assay = growth rate; endpoint = EC50; value = 4.4 µg/mL
SMILES = C=CCOc1ccc(-c2c(C)[nH]c(C)c(Br)c2=O)cc1; tested on = Plasmodium yoelii; test system = 17XL; setting = 384-well; endpoint = IC50; value = 712 ± 360 nM
SMILES = Cc1ccccc1-c1ccc([C@H]2[C@@H](CO)N3CCCCN(CC4CC4)C[C@@H]23)cc1; tested on = IDE; assay = enzyme activity, inhibitor, fluorogenic kinetic; setting = added: Mca-RPPGFSAFK(Dnp)-OH substrate; endpoint = EC50; value = 45000 nM
SMILES = CC(C)n1ncc2c(C(=O)NCC3(C)CNC3)cc(C3CC3)nc21; tested on = Enterovirus D68; assay = viral replication; test system = RD, recombinant wild-type US/MO/14-18947; setting = 0.01 µM; scale = reference: untreated; endpoint = plaque area; value = 114% and 102%
SMILES = CCOc1ccc2cc(-c3nn(CC4CCNCC4)c4ncnc(N)c34)ccc2c1; tested on = Theileria equi; assay = hydroethidine flow cytometry; test system = USDA Florida; setting = 3 µM, 72 h; endpoint = % of maximum PPE; value = 88.1%
SMILES = Cc1[nH]c(C)c(-c2ccc(OCc3ccc(F)cc3)cc2)c(=O)c1Br; tested on = Plasmodium yoelii; test system = 17XL; setting = 384-well; endpoint = IC50; value = 181 ± 70 nM
SMILES = CC(=O)Nc1cccc(-n2c(=O)n(C3CC3)c(=O)c3c(Nc4ccc(I)cc4F)n(C)c(=O)c(C)c32)c1; tested on = NCI-H2087 (BRAF L597V); setting = 100.00 nM, 72 h, unit not given; scale = reference: DMSO; endpoint = viability; value = 0.358
SMILES = Cc1[nH]c(C)c(-c2ccc(OCc3cccc(C(F)(F)F)c3)nc2)c(=O)c1Br; tested on = Plasmodium yoelii; test system = 17XL; setting = 384-well; endpoint = IC50; value = 86 ± 25 nM
SMILES = CC(=O)N1CCC(C(=O)N2CCN3C(=O)c4cc(-c5ccccc5)ccc4NC(=O)C3C2)CC1 (stereo not shown); tested on = Caenorhabditis elegans; test system = N2; setting = 100 µM; endpoint = mean lifespan; value = 28.2 days

For quick reference, copied from above:
SMILES = Nc1nc(-c2ccccc2)nc2[nH]nc(Nc3ccc(C(F)(F)F)cc3)c12; tested on = coxsackievirus B3; test system = 31-1-93, NMRI mice, CVB3 chronic myocarditis; setting = oral, 100 mg/kg twice daily, day 14, dosed days 3 to 10, score scale 0 to 7; scale = direction not given; endpoint = clinical score; value = 0.8
SMILES = COc1ccnc(C(=O)NC(CO)C(=O)O)c1O (racemic); tested on = Pseudokirchneriella subcapitata; assay = growth rate; endpoint = EC50; value = 4.4 µg/mL
SMILES = C=CCOc1ccc(-c2c(C)[nH]c(C)c(Br)c2=O)cc1; tested on = Plasmodium yoelii; test system = 17XL; setting = 384-well; endpoint = IC50; value = 712 ± 360 nM
